Assay results of several laboratories.
Each numbered part is a random draw from the data of one study; scales do not carry over between parts. Substitutions count along the parent as printed.

Block 1
Target: TAR DNA-binding protein 43, full length, His tag (TARDBP, Homo sapiens, UniProt Q13148, residues 1-414)
Technique: RNA Bind-n-Seq
Form: RNA
Medium: in vitro
Concentration: 20 nM
Notes: 6-mer, flanks averaged, single round
Together with: 150 mM LiCl
Relative to: input library
Reading: higher = stronger binding
Quantity: 6-mer enrichment (R)
CGGGGC: 1.1
CGGAGC: 0.959
ACCAUU: 0.959
CACAUG: 0.891
UGGUAU: 1.19
GAGUUC: 0.913
GCCCAU: 0.994
CAGUCU: 0.83
GUUCUG: 0.99
UCCUAC: 0.846
CCUUUU: 1.23
UGUCGU: 1.06
GCGGCA: 1.02
CCCAAU: 1.01
GGAGAA: 1.05
UCCAGC: 0.924
AUCCGG: 0.856
CUUUCG: 0.885
CAUGAU: 0.859
GGGCUU: 1.02
CAGCGA: 0.881
UAUGGA: 1.05
UUGGGA: 1.13
GACGUG: 1.08
UACAUC: 0.827

Block 2
Target: Interferon regulatory factor 7, full length, phosphomimetic (IRF7, Homo sapiens, UniProt Q92985, residues 1-503, S101K/S471D/S472D/S475D/S476D/S477D/S483D/S484D/S487D)
Technique: protein-binding microarray
Form: double-stranded DNA, one strand shown
Medium: in vitro
Concentration: 250 nM
Notes: 60-bp whole probe
Together with: salmon DNA 0.4 mg/ml
Relative to: random background probes
Reading: higher = stronger binding
Quantity: log fluorescence
Shared flanks, not repeated: GCCTAGCAC … GTCTTGATTCGCTTGACGCTGCTG
Target sequence (chain): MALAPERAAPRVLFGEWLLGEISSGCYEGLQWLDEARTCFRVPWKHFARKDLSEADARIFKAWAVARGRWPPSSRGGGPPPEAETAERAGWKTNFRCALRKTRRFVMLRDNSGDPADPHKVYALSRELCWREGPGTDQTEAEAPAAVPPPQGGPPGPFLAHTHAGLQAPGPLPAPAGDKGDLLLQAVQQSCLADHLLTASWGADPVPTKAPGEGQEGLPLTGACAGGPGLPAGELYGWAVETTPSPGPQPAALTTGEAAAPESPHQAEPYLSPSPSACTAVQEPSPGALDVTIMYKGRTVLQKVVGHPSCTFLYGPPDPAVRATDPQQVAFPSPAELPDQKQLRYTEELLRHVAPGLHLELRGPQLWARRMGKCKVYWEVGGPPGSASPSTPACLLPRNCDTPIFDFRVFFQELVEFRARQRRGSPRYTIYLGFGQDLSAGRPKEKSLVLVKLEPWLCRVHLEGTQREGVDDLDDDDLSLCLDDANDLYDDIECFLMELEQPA
GACGAATTACCTCTGGAGCAGTGCTAG: -0.403 z-score
GACGATTTCAGTTCCTAGACGTGCTAG: 0.847 z-score
TTAGGACTGGGTATAGGTTAGTGCTAG: -0.122 z-score
TTAGGACTGGACACTGGTTTAGTGCTA: -0.274 z-score
CTTTCTTTGCTTCACCCTGGGTGCTAG: 1.91 z-score
GACGATATCATTATCGAGACGTGCTAG: 0.0168 z-score
GACGGACTGGAGACTGGGGACGTGCTA: -0.279 z-score
TTCTTTATGCACTCTCTACATGTGCTA: 0.656 z-score
GACGATTTCGGGTTTCGAAACGTGCTA: 6.32 z-score
TCACATTTCCCTTGCCGACTGTGCTAG: 1.5 z-score
TTAGGTCTCGGTCTCGGTCAGTGCTAG: 1.21 z-score
GACGGACTGGGTCTCGCGACGTGCTAG: -0.581 z-score
GACGGTTTCGGTTTCGGGCCGTGCTAG: 13.6 z-score
GTCGGTTCCCTTTTCCTGACGTGCTAG: 4.21 z-score
TTATGTATCGACTATCGGTTAGTGCTA: 0.0558 z-score
TTAGAACTGGGGTATCAATTAGTGCTA: -0.358 z-score
GACGATATCGGGTAACGAGACGTGCTA: -0.253 z-score
GGCGATCTCAGTCTCGAGACGTGCTAG: -0.219 z-score
TTGGGTATCCTTTTCCTTTAGTGCTAG: 1.32 z-score
TTCCCTTTCTCAACCTCCAGGTGCTAG: 3.14 z-score
GACGCACTGGGGTTTCGGGACGTGCTA: 1.23 z-score
GACGGTATCGGACTGGGGGCGTGCTAG: 0.325 z-score
GACGGTCACGGTATCGGGACGTGCTAG: 0.275 z-score
TCAAGTTGGACCTCTCAGACTGTGCTA: -0.193 z-score
TCAGATTTCTCAAACAGACTGTGCTAG: 0.498 z-score

Block 3
Target: RNA binding protein fox-1 homolog 2, RRM domain, GST-SBP tag (RBFOX2, Homo sapiens, UniProt O43251-10, residues 100-194)
Technique: RNA Bind-n-Seq
Form: RNA
Medium: in vitro
Concentration: 365 nM
Notes: natural RNA segment, single round, ends assumed
Relative to: no-protein control
Reading: higher = stronger binding
Quantity: RBNS enrichment (R)
Construct (chain): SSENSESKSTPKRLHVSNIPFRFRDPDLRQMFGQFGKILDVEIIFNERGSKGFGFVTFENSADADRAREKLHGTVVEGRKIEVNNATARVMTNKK
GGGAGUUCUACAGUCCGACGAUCGAUUCUUAAAAAGCAGUGGUUAAUUUGCUGGCUUUUCAAACCCUGCCCGCCCUGGUUUGCCUGCGGUUUAAUAUGCAAUAUUCAGCAGACAGCUGCUGGCGCUACAAUUAUGGAAUUCUCGGGUGCCAA: 0.991
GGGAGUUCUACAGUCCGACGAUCUUGUUUUUUUAGUUUGUUAUCCCCUUACUGAGCGGCCUCUACUAGGUGGCUGUGAUUAAAUGUCCCAAGCAAGGAUAGGGAAGGGGAAUGGUUGAGCCUCUGGAGAUCAUUGGAAUUCUCGGGUGCCAA: 1.35
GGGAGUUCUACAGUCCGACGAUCCUAGAGCCCAGGAGAUGGGUGUUGCAGUGAGCUGAGACCAUGCCACUGUACUCUAGCCUGGGUAACAGCCAGACCCUGUCUCAAAAAAAAAAACAAUUUUUUUCAUAACAUGGAAUUCUCGGGUGCCAA: 0.339
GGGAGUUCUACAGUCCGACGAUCUUUGCAAAUGUGUAUGAUGCCAGUUGUUUGGACUCUUGGAAAACACCACUGGAGGGCUUUGCUCCAGAAUGCAGACCGCUCUGCCAAGGCCUCCAUGUCUGCUUGCAUCUUGGAAUUCUCGGGUGCCAA: 9.2
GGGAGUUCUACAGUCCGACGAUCGCCUGGCACUGGGUAAAUGUAUAGUUAAAGUAGUAGCCACAACGUUGUUCUUAUUCCUAGGUCAGGGUAGUACAAAUUACGGAAAGAGCCAGCGACGUGGUGGUCAUCAGUGGAAUUCUCGGGUGCCAA: 0.498
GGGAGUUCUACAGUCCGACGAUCCCCUUUCUUGGUGUGUGGGGGAUCUAUGGCCAUCUCCUACCAUGAGGGAGCUACCCAGCUUCCUGUGGUACCAAGGAGUUAUUUUGGAUGAUUAGAAGCACAGAAUGAUCUGGAAUUCUCGGGUGCCAA: 0.568
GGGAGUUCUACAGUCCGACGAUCGAAGGCACAGCCAGCGUUGUGGCCUGAGGGAGGCCCUGCUGGGACCCUGAUCUGGGCCUUCCUGUCCCAGGGCCUAUGGGCAACUGCGUUGAAAGGACGUUCGCCAAGGGUGGAAUUCUCGGGUGCCAA: 0.497
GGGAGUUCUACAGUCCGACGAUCUAACUGUAAAAGGCCCCUACACGUGACGCCAUCUGGACACCCACUCUGGCGGGGGUGGCACCACCCACCGCCGUCCUGGGAAGCCAUCACCGCUCAUCUGUGCCCGCGGCUGGAAUUCUCGGGUGCCAA: 0.361
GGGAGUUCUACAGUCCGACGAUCCAAUAGCAUUUUCCUCUGCUUUGAAAUUUCCAGAAAUCAUCUUGGGCCAAGGCAAUGACACAUACAGAAAAGUCAUGGGCAACUUCUCCACCAAGGCUGAUUUAUGUUAUUGGAAUUCUCGGGUGCCAA: 0.445
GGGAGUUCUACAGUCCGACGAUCUGACACUGAGCAGGCAGAUUAGCAAUCUCCCAGGUCAUGCAGCAUCUUGAAACAAAGUAAGAAUUCUGAUUCCCAAAAAUAACAAAUUUAAGUGUAUACUUUAGCAGGUGUGGAAUUCUCGGGUGCCAA: 1.73
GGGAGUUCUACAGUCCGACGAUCCCUUCUCUGGAACCACUCCAGCCCAGCUCCACCUCAGCCUUGGCCUUCACGCUGUGGAAGCAGCCAAGGCACUUCCUCACCCCCUCAGCGCCACGGACCUCUCUGGGGAGUGGAAUUCUCGGGUGCCAA: 0.424
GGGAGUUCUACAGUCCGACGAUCAUAAUGUUCACUUUUUAUAGUGUGUCCUUUAUUCUAAACAGUAAAGUGGUUUUAUUUCUAUCACACAUCUGCUGUCUCUUGCCUUGUUGUGUUCUGACGCCACGGGGAGUUGGAAUUCUCGGGUGCCAA: 0.785

Block 4
Target: CCNE2, cyclin fold, Cln2 fusion (human)
Technique: yeast growth competition, sequencing
Medium: yeast
Notes: strong parent motif
Relative to: not given
Reading: higher = stronger binding
Quantity: normalised enrichment score
Starting sequence: PKN2 docking peptide (human); VSAVRKLDFSDTM
D11C: 5.1
D8S: 3.84
V4S: 1.38
T12Q: 4.37
S10G: 5.07
S2D: 2.8
L7Q: 0.257
V4A: 2.7
S10W: 2.92
R5A: 0.186
D8A: 2.02
T12S: 4.86
A3N: 0.24
D8N: 4.52
T12A: 4.89
D8R: 2.45
S10E: 3.96
F9N: 0.316
K6R: 5.46

Other studies, line by line
PhoQ, residues 284 288 289 292 302 303 SCKMEA
fold induction (PhoP, residues 12 14 15 18 19 VHTVL (Escherichia coli, UniProt P23836); Sort-seq, item: YFP reporter; E. coli; PhoQ-PhoP variant library, together with: 10 µM Mg2+; relative to: high Mg2+ state, higher = stronger signaling): 6.34

Excerpt of the above (block 3):
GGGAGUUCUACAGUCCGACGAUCUUGUUUUUUUAGUUUGUUAUCCCCUUACUGAGCGGCCUCUACUAGGUGGCUGUGAUUAAAUGUCCCAAGCAAGGAUAGGGAAGGGGAAUGGUUGAGCCUCUGGAGAUCAUUGGAAUUCUCGGGUGCCAA: 1.35
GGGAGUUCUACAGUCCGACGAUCCAAUAGCAUUUUCCUCUGCUUUGAAAUUUCCAGAAAUCAUCUUGGGCCAAGGCAAUGACACAUACAGAAAAGUCAUGGGCAACUUCUCCACCAAGGCUGAUUUAUGUUAUUGGAAUUCUCGGGUGCCAA: 0.445
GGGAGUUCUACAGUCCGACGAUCCUAGAGCCCAGGAGAUGGGUGUUGCAGUGAGCUGAGACCAUGCCACUGUACUCUAGCCUGGGUAACAGCCAGACCCUGUCUCAAAAAAAAAAACAAUUUUUUUCAUAACAUGGAAUUCUCGGGUGCCAA: 0.339
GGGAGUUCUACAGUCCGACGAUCGAAGGCACAGCCAGCGUUGUGGCCUGAGGGAGGCCCUGCUGGGACCCUGAUCUGGGCCUUCCUGUCCCAGGGCCUAUGGGCAACUGCGUUGAAAGGACGUUCGCCAAGGGUGGAAUUCUCGGGUGCCAA: 0.497
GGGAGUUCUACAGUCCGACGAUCUAACUGUAAAAGGCCCCUACACGUGACGCCAUCUGGACACCCACUCUGGCGGGGGUGGCACCACCCACCGCCGUCCUGGGAAGCCAUCACCGCUCAUCUGUGCCCGCGGCUGGAAUUCUCGGGUGCCAA: 0.361
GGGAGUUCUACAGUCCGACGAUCGCCUGGCACUGGGUAAAUGUAUAGUUAAAGUAGUAGCCACAACGUUGUUCUUAUUCCUAGGUCAGGGUAGUACAAAUUACGGAAAGAGCCAGCGACGUGGUGGUCAUCAGUGGAAUUCUCGGGUGCCAA: 0.498
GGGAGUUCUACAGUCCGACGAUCGAUUCUUAAAAAGCAGUGGUUAAUUUGCUGGCUUUUCAAACCCUGCCCGCCCUGGUUUGCCUGCGGUUUAAUAUGCAAUAUUCAGCAGACAGCUGCUGGCGCUACAAUUAUGGAAUUCUCGGGUGCCAA: 0.991
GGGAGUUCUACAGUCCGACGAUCUUUGCAAAUGUGUAUGAUGCCAGUUGUUUGGACUCUUGGAAAACACCACUGGAGGGCUUUGCUCCAGAAUGCAGACCGCUCUGCCAAGGCCUCCAUGUCUGCUUGCAUCUUGGAAUUCUCGGGUGCCAA: 9.2
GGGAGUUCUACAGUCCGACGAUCAUAAUGUUCACUUUUUAUAGUGUGUCCUUUAUUCUAAACAGUAAAGUGGUUUUAUUUCUAUCACACAUCUGCUGUCUCUUGCCUUGUUGUGUUCUGACGCCACGGGGAGUUGGAAUUCUCGGGUGCCAA: 0.785
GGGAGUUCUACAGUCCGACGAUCCCCUUUCUUGGUGUGUGGGGGAUCUAUGGCCAUCUCCUACCAUGAGGGAGCUACCCAGCUUCCUGUGGUACCAAGGAGUUAUUUUGGAUGAUUAGAAGCACAGAAUGAUCUGGAAUUCUCGGGUGCCAA: 0.568
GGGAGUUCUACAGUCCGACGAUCCCUUCUCUGGAACCACUCCAGCCCAGCUCCACCUCAGCCUUGGCCUUCACGCUGUGGAAGCAGCCAAGGCACUUCCUCACCCCCUCAGCGCCACGGACCUCUCUGGGGAGUGGAAUUCUCGGGUGCCAA: 0.424
